Results of several laboratories.
Numbered parts are unrelated; each lists some results of a single study.

Study 1
Target: Transcriptional repressor CTCF (CTCF, Homo sapiens, UniProt P49711, residues 1-727, full length assumed)
Technique: protein-binding microarray
Molecule type: double-stranded DNA, one strand shown
Matrix: in vitro
Concentration: not given
Notes: k-mer, scored over probes, only values ≥0.25
Reading: higher = stronger binding
Residues (chain): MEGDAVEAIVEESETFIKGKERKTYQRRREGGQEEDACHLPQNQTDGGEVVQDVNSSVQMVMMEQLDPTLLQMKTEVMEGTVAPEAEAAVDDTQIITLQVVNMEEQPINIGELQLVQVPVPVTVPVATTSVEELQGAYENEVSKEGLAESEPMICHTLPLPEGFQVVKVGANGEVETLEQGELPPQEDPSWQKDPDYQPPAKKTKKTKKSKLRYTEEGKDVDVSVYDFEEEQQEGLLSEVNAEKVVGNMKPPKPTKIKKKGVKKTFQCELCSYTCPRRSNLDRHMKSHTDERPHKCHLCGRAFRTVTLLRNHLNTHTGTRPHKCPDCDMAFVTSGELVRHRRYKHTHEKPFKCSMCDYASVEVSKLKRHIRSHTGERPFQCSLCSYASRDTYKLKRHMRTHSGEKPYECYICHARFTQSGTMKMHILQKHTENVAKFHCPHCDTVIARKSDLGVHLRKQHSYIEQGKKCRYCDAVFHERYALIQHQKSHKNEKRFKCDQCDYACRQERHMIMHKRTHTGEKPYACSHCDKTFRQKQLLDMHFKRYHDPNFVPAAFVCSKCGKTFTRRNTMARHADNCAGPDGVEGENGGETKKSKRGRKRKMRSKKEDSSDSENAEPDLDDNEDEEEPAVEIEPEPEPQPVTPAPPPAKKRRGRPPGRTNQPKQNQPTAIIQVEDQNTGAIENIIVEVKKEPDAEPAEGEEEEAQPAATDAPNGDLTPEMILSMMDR
Oligonucleotide	E-score
AATGTAAT	0.294
AACAATTA	0.257
TTAATTAA	0.283
ATACAAAT	0.352
GATATTAC	0.267
GCGCATGA	0.325
ATGTTACA	0.266

Study 2
Target: Sal-like protein 4, full length isoform A (SALL4, Homo sapiens, UniProt Q9UJQ4, residues 1-1053)
Chain of UniProt Q9UJQ4 (whole entry, looked up): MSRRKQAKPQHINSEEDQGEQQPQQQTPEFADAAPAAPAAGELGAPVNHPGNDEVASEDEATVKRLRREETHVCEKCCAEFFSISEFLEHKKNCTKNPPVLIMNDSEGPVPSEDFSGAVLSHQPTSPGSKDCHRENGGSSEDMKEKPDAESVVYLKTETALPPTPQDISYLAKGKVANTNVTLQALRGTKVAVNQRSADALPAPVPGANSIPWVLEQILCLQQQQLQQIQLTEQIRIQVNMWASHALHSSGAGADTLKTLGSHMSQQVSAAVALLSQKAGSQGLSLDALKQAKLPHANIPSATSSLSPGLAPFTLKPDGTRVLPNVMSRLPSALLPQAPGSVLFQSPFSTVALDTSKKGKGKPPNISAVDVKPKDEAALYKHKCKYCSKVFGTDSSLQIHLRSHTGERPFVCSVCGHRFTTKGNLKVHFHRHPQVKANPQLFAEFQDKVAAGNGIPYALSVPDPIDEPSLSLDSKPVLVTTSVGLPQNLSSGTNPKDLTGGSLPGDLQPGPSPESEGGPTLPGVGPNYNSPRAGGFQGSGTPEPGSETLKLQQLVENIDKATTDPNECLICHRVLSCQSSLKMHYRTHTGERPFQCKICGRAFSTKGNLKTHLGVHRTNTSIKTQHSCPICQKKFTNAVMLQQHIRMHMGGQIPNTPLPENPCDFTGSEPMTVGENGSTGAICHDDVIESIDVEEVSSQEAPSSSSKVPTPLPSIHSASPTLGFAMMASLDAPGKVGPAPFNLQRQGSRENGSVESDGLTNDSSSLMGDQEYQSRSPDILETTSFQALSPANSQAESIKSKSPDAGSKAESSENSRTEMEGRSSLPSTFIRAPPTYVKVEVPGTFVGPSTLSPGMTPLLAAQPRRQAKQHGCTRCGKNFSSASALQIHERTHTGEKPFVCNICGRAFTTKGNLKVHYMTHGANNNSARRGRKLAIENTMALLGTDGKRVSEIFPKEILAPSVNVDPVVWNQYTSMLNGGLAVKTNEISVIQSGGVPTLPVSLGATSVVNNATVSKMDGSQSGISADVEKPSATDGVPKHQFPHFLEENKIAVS
Technique: universal PBM
Molecule type: double-stranded DNA, one strand shown
Matrix: in vitro
Concentration: 600 nM
Notes: 8-mer, flanks averaged, mean of replicates
Reading: higher = stronger binding
Oligonucleotide	E-score
ATATTTAA	0.444
CAAGCATC	-0.0899
CGCGAGAG	-0.23
AGTGCCGC	-0.23
CTTGGGCA	-0.174
AACCCGCT	-0.269
AGAAGGAG	-0.084
CGTGATCA	0.0915
CAGCCCCA	-0.32

Study 3
Target: Histone acetyltransferase KAT6A, both winged helices, GST fusion (KAT6A, Homo sapiens, UniProt Q92794, residues 1-181)
Technique: protein binding microarray
Molecule type: double-stranded DNA, one strand shown
Matrix: in vitro
Concentration: not given
Notes: 8-mer, flanks averaged, mean of 2 arrays, mostly near background
Relative to: not given
Reading: higher = stronger binding
Construct (chain): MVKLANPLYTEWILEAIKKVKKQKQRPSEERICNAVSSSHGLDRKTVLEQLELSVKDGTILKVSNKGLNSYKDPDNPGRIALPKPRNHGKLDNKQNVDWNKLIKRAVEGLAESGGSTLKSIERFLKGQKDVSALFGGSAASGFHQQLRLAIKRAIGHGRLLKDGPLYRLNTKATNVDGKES
Oligonucleotide	E-score
TACGCCCA	-0.0428
AGCTACTG	-0.229
AAGCGAGG	-0.0418
AGCTGGGC	-0.0727
GAGAGGCA	-0.2
CACCGATC	0.0352
ACCGAGCA	-0.0139
GTACAATA	0.0589
GTAATCGA	-0.101
CGTCCTCA	0.111

Single results of other studies
Substance	target	test	system	setting	scale	endpoint	result
PhoQ, residues 284 288 289 292 302 303 NSMLDC	PhoP, residues 12 14 15 18 19 YHFSH (Escherichia coli, UniProt P23836)	Sort-seq, item: YFP reporter	E. coli	PhoQ-PhoP variant library, together with: 10 µM Mg2+	relative to: high Mg2+ state, higher = stronger signaling	fold induction	2

A few entries again (study 3):
Oligonucleotide	E-score
GTACAATA	0.0589
GAGAGGCA	-0.2
AAGCGAGG	-0.0418
